Experimental data from different studies.
Every numbered part comes from another study and shows a few of its results, in no order.

Block 1 — method: protein binding microarray; molecule type: double-stranded DNA, one strand shown; matrix: in vitro; tested at: not given; baseline: not given; direction: higher = stronger binding; endpoint: E-score
Target: Histone acetyltransferase KAT6A, winged helix 1, GST fusion (KAT6A, Homo sapiens, UniProt Q92794, residues 1-85)
Notes: 8-mer, flanks averaged, mean of 2 arrays, mostly near background
Construct (chain): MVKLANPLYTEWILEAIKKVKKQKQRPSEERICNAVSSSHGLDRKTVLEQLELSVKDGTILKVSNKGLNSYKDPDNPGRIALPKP
CCTGGCCC: -0.0584
CTGACAAA: -0.194
CCTAGAGA: -0.163
TACAAGAA: -0.185

Block 2 — method: RNAcompete; molecule type: RNA; matrix: in vitro; tested at: 20 nM; notes: 7-mer, probes averaged, single round; baseline: mean of 7-mers; direction: higher = stronger binding; endpoint: 7-mer Z-score
Target: PABPC1L2, full length, GST fusion (mouse, UniProt A0ABA7IW68)
Target sequence (chain): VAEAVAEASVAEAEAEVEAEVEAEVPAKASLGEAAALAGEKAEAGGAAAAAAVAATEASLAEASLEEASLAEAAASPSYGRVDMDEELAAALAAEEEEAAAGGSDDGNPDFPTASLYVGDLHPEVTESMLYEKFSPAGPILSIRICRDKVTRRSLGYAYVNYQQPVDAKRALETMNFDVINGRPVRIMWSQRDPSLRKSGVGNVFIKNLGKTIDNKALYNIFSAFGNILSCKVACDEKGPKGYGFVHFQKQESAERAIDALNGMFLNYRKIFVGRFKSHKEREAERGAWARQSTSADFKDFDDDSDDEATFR
AAAACCG: 2.92
UUGUCCA: -0.264
CGGCGCA: -0.17
UUGAGCA: -0.155
GACGAUC: -0.162

Block 3 — method: universal PBM; molecule type: double-stranded DNA, one strand shown; matrix: in vitro; tested at: not given; direction: higher = stronger binding; endpoint: E-score
Target: Sal-like protein 4, full length isoform B (SALL4, Homo sapiens, UniProt Q9UJQ4-2, residues 1-616)
Notes: 8-mer, flanks averaged, mean of replicates
AATCTAAA: 0.194
CCACTCTA: -0.00898
ACCCATCT: 0.18
AATTTCAC: 0.289
CGTGTAGC: 0.0164

Mixed results
PhoQ, residues 284 288 289 292 302 303 ASVMEA
fold induction (PhoP, residues 12 14 15 18 19 TPWLV (Escherichia coli, UniProt P23836); Sort-seq, measured: YFP reporter; E. coli; PhoQ-PhoP variant library, with: 10 µM Mg2+; baseline: high Mg2+ state, higher = stronger signaling): 6.78
